Results gathered from unrelated publications.
Every numbered part comes from another study and shows a few of its results, in no order. Positions count from the first letter of the parent shown.

Set 1
Target: PABPC1L2, full length, GST fusion (mouse, UniProt A0ABA7IW68)
Technique: RNAcompete
Form: RNA
Sample: in vitro
Tested at: 20 nM
Setting: 7-mer, probes averaged, single round
Baseline: mean of 7-mers
Reading: higher = stronger binding
Construct (chain): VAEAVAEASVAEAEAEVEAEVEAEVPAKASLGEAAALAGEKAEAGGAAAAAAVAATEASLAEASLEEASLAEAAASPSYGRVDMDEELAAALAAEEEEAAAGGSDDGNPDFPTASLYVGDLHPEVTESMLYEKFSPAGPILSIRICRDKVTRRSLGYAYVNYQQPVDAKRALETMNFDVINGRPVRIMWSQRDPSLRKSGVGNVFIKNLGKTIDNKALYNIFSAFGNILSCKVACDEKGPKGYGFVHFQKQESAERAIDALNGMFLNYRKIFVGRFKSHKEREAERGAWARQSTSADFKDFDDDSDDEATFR
| Sequence | 7-mer Z-score |
| --- | --- |
| UGUCCUG | -0.302 |
| UCGAUCU | -0.264 |
| AUAGGUG | -0.0319 |
| UUAGGCC | -0.151 |
| ACGGUAC | 0.0334 |
| AGGGUGC | 0.405 |
| CUAAGCG | -0.351 |
| CGUCACC | -0.28 |

Set 2
Target: Cyclic AMP-dependent transcription factor ATF-1, full length (ATF1, Homo sapiens, UniProt P18846, residues 1-271)
Technique: protein-binding microarray
Form: hairpin DNA
Sample: in vitro
Tested at: not given
Setting: whole hairpin DNA, median over replicate spots
Baseline: not given
Reading: higher = stronger binding
All sequences stand within: GAGGCCG … CGGCCTCACACTC
Residues (chain): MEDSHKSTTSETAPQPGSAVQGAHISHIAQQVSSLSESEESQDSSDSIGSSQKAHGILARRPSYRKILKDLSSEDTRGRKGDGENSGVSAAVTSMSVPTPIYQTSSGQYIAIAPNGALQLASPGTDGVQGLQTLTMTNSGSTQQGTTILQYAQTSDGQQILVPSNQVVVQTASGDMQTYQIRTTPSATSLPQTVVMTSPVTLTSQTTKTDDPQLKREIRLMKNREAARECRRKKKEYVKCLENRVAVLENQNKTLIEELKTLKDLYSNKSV
| Sequence | median fluorescence [a.u.] |
| --- | --- |
| GATGACCGCAGCCTCCTGGCTGCGGTCATC (5mC at 14) | 3470 |
| GCTGACGTTAGCCTCCTGGCTAACGTCAGC | 4990 |
| GATCACGTCAGCCTCCTGGCTGACGTGATC (5mC at 11) | 5200 |
| GCTCGCGTCAGCCTCCTGGCTGACGCGAGC (5mC at 33) | 5440 |
| GCTGACGCGAGCCTCCTGGCTCGCGTCAGC | 4290 |
| GCTGACCTCAGCCTCCTGGCTGAGGTCAGC | 3260 |
| TCTGACGTCAGCCTCCTGGCTGACGTCAGA | 9720 |
| ACGACGTCATGCCTCCTGGCATGACGTCGT (5mC at 9 15 35) | 4300 |

Set 3
Target: Hepatocyte nuclear factor 3-alpha (Foxa1, Mus musculus, UniProt P35582, residues 1-468, full length assumed)
Technique: EMSA with sequencing
Form: double-stranded DNA, one strand shown
Sample: in vitro
Tested at: 10 and 20 nM
Setting: whole designed probe, mean of two concentrations, ends assumed
Baseline: negative control set to 0
Reading: higher = stronger binding
Construct (chain): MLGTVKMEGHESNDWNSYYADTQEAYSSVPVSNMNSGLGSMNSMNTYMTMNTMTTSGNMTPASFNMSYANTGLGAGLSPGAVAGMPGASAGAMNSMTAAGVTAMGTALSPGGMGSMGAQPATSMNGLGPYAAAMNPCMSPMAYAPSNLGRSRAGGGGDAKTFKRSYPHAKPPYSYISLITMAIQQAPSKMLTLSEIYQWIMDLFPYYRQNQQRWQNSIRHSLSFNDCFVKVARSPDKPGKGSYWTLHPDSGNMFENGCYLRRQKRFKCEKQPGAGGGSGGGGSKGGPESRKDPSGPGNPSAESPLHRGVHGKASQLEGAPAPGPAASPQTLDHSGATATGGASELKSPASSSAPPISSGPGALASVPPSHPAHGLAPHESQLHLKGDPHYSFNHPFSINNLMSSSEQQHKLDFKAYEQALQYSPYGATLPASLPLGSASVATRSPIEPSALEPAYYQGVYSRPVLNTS
| Sequence | normalised bound fraction [ratio] |
| --- | --- |
| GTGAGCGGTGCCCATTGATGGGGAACGGCTCCAAACGGCTGAATCAGCATTTTCAGAAACAAAGTGTTCTAGGCCTGGCCTTTTAAACAGCAGCAACGAGCAAGATGTGCATTAACGCATATTTACTCACGAGCTCTCCTTGTTTTGGTCTTTCCCCCCTCCCCCCCATCTCTTGAATGAAACTGGGCACCAAGTTTGCAAGAAAATATTCTTTCAAACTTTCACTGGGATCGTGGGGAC | 0.107 |
| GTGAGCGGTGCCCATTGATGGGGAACACTATTGACCAAATTTTACTAACCCTTTTGTTGGAAGAAATTGTTGGCAGCTATAAACAGTATGAGTATTACAGCCTTAGTTTCAGACTATATGTTTACATTGTCCAATAAATCTCTTCCTACTCCATATTTAGAACACTGTATAGAATAGTAAAAGCTAGAACAATCTTTACAATCACCAGTCTGTAGATTCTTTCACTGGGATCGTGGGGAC | 0.413 |
| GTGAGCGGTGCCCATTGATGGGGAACGCAGTTCTGTGGTAGTGGGCATCAGTAAAGCTCTTCTCCAGGGCTAGGCTTCTCCTTATTTCTAGAGTGTCAGGGAAAAGGACTTCTTCAAAGTAATCTAGAAGTGCAATATTCACAAAGGACACATACATTCTCAGTGCTGTATTTGGCTGCAACTTCAGGGAGGTCAGATGGTCGTGCAGTTTACCACTGGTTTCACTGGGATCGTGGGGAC | -0.0814 |
| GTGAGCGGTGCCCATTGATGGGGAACTAGTGGTCTGAGTGTGTGGGAGTGGAGCTAAGCCTCCAGGACGATAGACTGTAGGACTTTGGATACTGGTTCCCAGCAAAAGATAAATGCCAATATTTGCATTGGGTATGGGGGGAGTGAACACTTCCCACAAAGGCCTTTGTTCTTTTGCCCACAGCTTGTTACTTAGGCAACTGACAATTGAAGTTTGTGGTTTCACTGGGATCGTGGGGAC | 0.302 |
| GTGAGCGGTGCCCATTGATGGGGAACCTTGATAAGATTGAGCTTCCAGCAGAATGTAAATGCATCTGCTAACAGCAACCAGGCTTTGTCCCAAAACAGTAGTGAATCAGAATCTGCACAGTAAATATTGCAGTTAATTTCCTCTCCTGTACTTATGACTCACAGGCCTTTCTTTACGTTCACAGTTTCATAGAAATTGGCAAATACTTCTTGACACTGATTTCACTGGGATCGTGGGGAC | 0.0884 |
| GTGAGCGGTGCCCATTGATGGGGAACAGCATTAACTCAAGCTGTTAGAATCAAGAATCCTAAGGAAAACAGATAGAAATAAATTACTGTATAAAATAGAAATGACTATATTGAAATAAGTAAACATGGAATAACTAAATATTTTTCAAATAAATTATTAGTGGGCCTATGAGGAAAATAAGGAAAAAGCAATATAAATAAAAAGCAAATAAATAAAACTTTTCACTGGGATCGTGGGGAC | 0.514 |
| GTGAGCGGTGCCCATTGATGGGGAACATCTTCCCCCTCTTCCTTGCCCCACCAGCTCACCTACGGGGGTTATTTGCACAAAGGAAAATAAATAAAGCCGGCATTCGTTAACGCAGTTCACGCGCATACTGCTGTTTGCTCTGGATCTAACATGGTCCTTTGGCGAGGCGTGGCTCCGGGAGAGCAAAGCACCGTGTCAGGGCCATGATCCGGGCTCGCCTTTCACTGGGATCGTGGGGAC | 0.385 |
| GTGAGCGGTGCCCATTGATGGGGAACCTTCTAGCCTCCAGAGCTATAGGACTATGAATTAGTATGGTTTTAAGTTACTAGGTTTGTACTAATTTGTCACAGCAGCAATAGGAAACTAAAGCAAACACCAGACCTAAGCTTCCTCCTGCCTCAGGTGGGATAATTCAGGCATGATGTGCATGGTTTCAGTGGGTTGGAGCCTCTGCTGCCCACTGCAGTATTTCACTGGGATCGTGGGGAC | 0.198 |

Mixed results
Starting sequence: viral docking peptide; YKVKRRLVFGADD
| Change | target | test | test system | conditions | scale | measurement | value |
| --- | --- | --- | --- | --- | --- | --- | --- |
| YVVKRRLVFGADD [K2V] | CCNB3, cyclin fold, Cln2 fusion (human) | yeast growth competition, sequencing | yeast | strong parent motif | baseline: not given, higher = stronger binding | normalised enrichment score | 1.5 |
